Measured values from different studies.
Parts stem from different laboratories: compare values within a part only. Substitutions count along the parent as printed.

Series 1
Target: RNA binding protein fox-1 homolog 2, RRM domain, GST-SBP tag (RBFOX2, Homo sapiens, UniProt O43251-10, residues 100-194)
Technique: RNA Bind-n-Seq
Form: RNA
Sample: in vitro
Concentration: 365 nM
Notes: natural RNA segment, single round, ends assumed
Reference: no-protein control
Direction: higher = stronger binding
Residues (chain): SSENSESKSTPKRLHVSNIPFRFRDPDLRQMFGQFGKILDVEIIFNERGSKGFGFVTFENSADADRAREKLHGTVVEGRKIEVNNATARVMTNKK
| Oligonucleotide | RBNS enrichment (R) |
| --- | --- |
| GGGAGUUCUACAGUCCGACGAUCAUUAAAGACGAAAAGCCACCUCGGUUUGCUUAACUUUAGAUAGAUAGGACCUGGCGCACACAAGAGCAGGAGAACAGGGCUGGAGCAGCUGUUGACGGGACCCCUGCUGUUGGAAUUCUCGGGUGCCAA | 0.583 |
| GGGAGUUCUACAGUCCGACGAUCGAGUGUGCUGUUUUCAGAGAUGGGUCUUAGUAUUCCCAUUUAGCCCACUCAGCAUACACCCUCAAAAGACUCCCUCAGGAAACCACUAGUUCCUGUCACCUGCCCUCUGGUGGAAUUCUCGGGUGCCAA | 0.337 |
| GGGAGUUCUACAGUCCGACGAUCAGCCCUUUACCUCUCAUGUUCCACUUUGAAAAGUUUGUAUUGACAUUUGGUUCAUAUCUUGUGUAUUGGUGCAUAAAAGAAAAAAAAACAGUGUUUUUACGUUUUCAGUUUGGAAUUCUCGGGUGCCAA | 0.535 |
| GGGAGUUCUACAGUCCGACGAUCCAAGUGCCCAUGUGUGUAUGGGAAGAGGUGGCUAAAGCCACUAGACUAGGGUGCUCACCCCUCAAGAUUGAUUCCCUGUCUUUCCCUCUGGGGCACCGCACUUUGUAAAGUGGAAUUCUCGGGUGCCAA | 0.306 |
| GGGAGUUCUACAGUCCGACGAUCAAUAAAAUGAAAACGUAUUUAUACUGUUUUUACUAAGGUAACAAAAGCAUGAUAAUCCUUUUUUUUGCAAGUGUAAACGACAGUCUGGACUCUUAACUUCUUAGUGCCUCUGGAAUUCUCGGGUGCCAA | 3.48 |
| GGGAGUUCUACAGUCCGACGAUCUCCUGAAGGUGUAAAAUUGUAAAUAUUUUUAUCUAUGAGUAAAUGUUAAGUAGUUGUUUUAAAAUACUUAAUAAAAUAAUUCUUUUCCUGUGGAAGAGAAAGAUGGUCUCUGGAAUUCUCGGGUGCCAA | 0.948 |
| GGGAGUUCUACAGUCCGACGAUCCACAACUUGGACAAAAGUACACAGAAGAACCUUACUAUGAUAAUCUACUUGGAAUGUGGAUAAAUGUAAAAAGAAGAAAAGUUAGAAGAGCAAUAUGUUUCCUUCUCUGUUGGAAUUCUCGGGUGCCAA | 0.978 |
| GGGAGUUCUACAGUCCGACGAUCGGAUCUCGUUGGGGAAUUGGAUGAAGAAAAGCAGAGCGCCUCUGGUAGGUGACUCUGCAGCCUGCCAGCGCCCGCCCUCUUUCUACACAGCAGAGUGUGCAUGGCAAGGAUGGAAUUCUCGGGUGCCAA | 1.88 |
| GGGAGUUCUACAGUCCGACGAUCUUACUCUUCUGUUUGGGAUCGCUCCCACUCUUGUUCCCUUUUUUUCAUUCCUGGCAAUUCCCUCCCAAUCCUGCAGGUGCAACCUGCCAGGCCUGGGCCAUUGUCCUCAUUGGAAUUCUCGGGUGCCAA | 0.163 |
| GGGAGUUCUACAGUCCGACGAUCAGAGGGCUGGAGGGAUGAUUAGCUCGAAAAUCUAGACCUGUCCAAGGGGCUUCUCCCUUUCCUUGAGCUCUCUGGACACUGCAGAGGACCCAUGGCCAUGGAACCCUGAAUGGAAUUCUCGGGUGCCAA | 0.582 |
| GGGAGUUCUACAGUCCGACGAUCGCCGUAAGUUUCCAAGAUUCAAGAAGUGUAUCAACCCAGGCAAUAUCUCAGGAUAUGGAAGUUUCUGGGUUUAUUUACCCCUCAGUGCCCAGAGUUAAAGUUUCAGAAGAUGGAAUUCUCGGGUGCCAA | 0.221 |
| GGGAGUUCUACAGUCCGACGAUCGAUUGAACAUAAUCCUCUUGGGACUUCACGUUCUCAUUAUUUGUAUGUCUCCGGGGUCACGCAGAGCCGUCAGCCACCACCCCAGCACCCGGCACAUAGGCGUCUCAUAAUGGAAUUCUCGGGUGCCAA | 0.655 |

Series 2
Target: CCNB2, cyclin fold, Cln2 fusion (human)
Technique: yeast growth competition, sequencing
Sample: yeast
Notes: weak parent motif
Reference: not given
Direction: higher = stronger binding
Starting sequence: RB1 docking peptide (human); PKPLKKLRFDIEG; partner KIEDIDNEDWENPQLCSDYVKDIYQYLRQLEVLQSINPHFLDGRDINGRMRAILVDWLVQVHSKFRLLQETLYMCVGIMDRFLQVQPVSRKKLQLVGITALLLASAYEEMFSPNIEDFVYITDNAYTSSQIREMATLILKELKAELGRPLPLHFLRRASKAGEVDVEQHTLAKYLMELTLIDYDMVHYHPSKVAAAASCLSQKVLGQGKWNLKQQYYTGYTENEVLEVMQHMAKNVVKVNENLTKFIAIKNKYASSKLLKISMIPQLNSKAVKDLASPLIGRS
| Substitution | normalised enrichment score |
| --- | --- |
| K5V | -0.178 |
| P1H | 0.613 |
| P3W | 0.243 |
| K5R | 0.0779 |
| K5D | -0.0558 |
| E12G | 0.884 |
| K5S | 0.962 |
| K6R | 0.195 |
| F9Q | 0.42 |
| E12Y | 0.604 |
| F9P | -0.0317 |
| F9C | 0.0801 |

Series 3
Target: ABI1, truncated, D143A, DHFR fusion (Arabidopsis thaliana)
Technique: DHFR PCA, deep sequencing
Sample: yeast
Notes: methotrexate growth selection, single substitutions
Together with: (+)-ABA 58 µM
Reference: wild-type fitted maximum
Direction: higher = stronger binding
Starting sequence: PYL1, truncated, DHFR fusion (Arabidopsis thaliana); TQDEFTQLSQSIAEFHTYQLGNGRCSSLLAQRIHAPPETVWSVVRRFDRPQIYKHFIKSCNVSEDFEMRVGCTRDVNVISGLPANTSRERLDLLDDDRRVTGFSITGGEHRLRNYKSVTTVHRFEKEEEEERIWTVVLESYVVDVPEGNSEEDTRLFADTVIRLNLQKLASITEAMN
| Substitution | relative binding score |
| --- | --- |
| M68K | 50.3% |
| L93S | 67.9% |
| G108L | -6.31% |
| R90M | 66.9% |
| Q167L | 81.4% |
| M68P | 75% |
| D75I | 94.8% |
| R132I | 87.6% |
| E67A | 83.6% |
| N77S | 89.8% |
| F15C | 56.4% |
| D144G | 31% |
| L112C | 43.8% |
| Q10K | 93% |
| V100G | 8.03% |

Series 4
Target: Histone acetyltransferase KAT6A, winged helix 2, GST fusion (KAT6A, Homo sapiens, UniProt Q92794, residues 85-181)
Technique: protein binding microarray
Form: double-stranded DNA, one strand shown
Sample: in vitro
Concentration: not given
Notes: 8-mer, flanks averaged, mean of 2 arrays, mostly near background
Reference: not given
Direction: higher = stronger binding
Construct (chain): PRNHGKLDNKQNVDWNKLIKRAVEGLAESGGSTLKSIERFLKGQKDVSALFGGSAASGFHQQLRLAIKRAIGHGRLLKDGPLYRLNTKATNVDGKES
| Oligonucleotide | E-score |
| --- | --- |
| AACCTTAT | -0.029 |
| CGGTATTA | 0.113 |
| AGCCTGCG | 0.0688 |
| GTATTCTA | 0.06 |
| ACCAGACT | -0.132 |
| CGATGAAC | 0.0497 |
| AGAATCTG | 0.0115 |
| CTTCCGGA | 0.182 |
| CAAAAATA | -0.00402 |
| ATGCGGAG | 0.0498 |
| GCTCGAAC | 0.0883 |
| AAGGGCAT | -0.0207 |
| CGCAGCTC | 0.048 |
| ATCAGCGA | 0.0818 |
| GAACTTAC | 0.0923 |
| GCAGATGA | -0.021 |
| CATTAACC | 0.0697 |
| CGTTACTC | 0.0483 |
| GATAAAGC | -0.0898 |
| ACTGTTAC | -0.172 |

Series 5
Target: Protein max, full length (MAX, Homo sapiens, UniProt P61244-2, residues 1-151)
Technique: protein-binding microarray
Form: double-stranded DNA, one strand shown
Sample: in vitro
Concentration: not given
Notes: k-mer, scored over probes, only values ≥0.25
Direction: higher = stronger binding
| Oligonucleotide | E-score |
| --- | --- |
| ACGCTAAC | 0.309 |
| AAGACATG | 0.282 |
| GGTGGGTA | 0.283 |
| AACACGCG | 0.457 |
| GGTGGCCA | 0.278 |
| TAGCACGA | 0.293 |
| AGGGCGTG | 0.323 |
| ATCCCATG | 0.324 |
| AACATGTG | 0.486 |
| GTGCACCA | 0.267 |
| GTGTGACA | 0.309 |
| CCATGCCA | 0.337 |
| ACGCGAGC | 0.257 |
| GGCCACGA | 0.27 |
| CATGGGCC | 0.283 |
| GCGTACAC | 0.306 |
| AGCCCACG | 0.335 |
| ACGTGTCA | 0.412 |
| CACGCCTG | 0.379 |
| ATCACGGG | 0.288 |

Series 6
Target: Interferon regulatory factor 7, full length, phosphomimetic (IRF7, Homo sapiens, UniProt Q92985, residues 1-503, S471D/S472D/S475D/S476D/S477D/S483D/S484D/S487D)
UniProt Q92985, sequence (whole entry, unmodified, looked up): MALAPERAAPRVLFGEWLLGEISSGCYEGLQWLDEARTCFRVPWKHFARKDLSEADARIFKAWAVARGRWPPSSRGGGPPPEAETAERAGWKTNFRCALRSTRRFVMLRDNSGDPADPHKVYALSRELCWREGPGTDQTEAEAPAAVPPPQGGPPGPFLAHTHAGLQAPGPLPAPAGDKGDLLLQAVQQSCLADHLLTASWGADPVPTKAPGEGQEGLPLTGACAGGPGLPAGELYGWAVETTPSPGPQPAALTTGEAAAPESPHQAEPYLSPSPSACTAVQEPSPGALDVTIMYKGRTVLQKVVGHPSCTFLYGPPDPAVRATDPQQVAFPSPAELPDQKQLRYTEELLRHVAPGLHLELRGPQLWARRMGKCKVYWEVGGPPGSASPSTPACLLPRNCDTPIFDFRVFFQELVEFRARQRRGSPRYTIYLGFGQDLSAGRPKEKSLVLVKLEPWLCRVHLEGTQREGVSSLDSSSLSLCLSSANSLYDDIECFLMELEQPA
Technique: protein-binding microarray
Form: double-stranded DNA, one strand shown
Sample: in vitro
Concentration: 2200 nM top
Notes: 60-bp whole probe
Together with: salmon DNA 0.4 mg/ml
Reference: random background probes
Direction: higher = stronger binding
Shared flanks, not repeated: GCCTAGCAC … GTCTTGATTCGCTTGACGCTGCTG
| Oligonucleotide | fitted relative affinity |
| --- | --- |
| CACGATTCCAGTTTCGAGACGTGCTAG | 4.23 z-score |
| GCCGGACTGGGTATCGGGACGTGCTAG | -0.878 z-score |
| TTAGGTTTCGGTATAGGTTAGTGCTAG | 6.02 z-score |
| TTAGAACTGAGTTTGGATTAGTGCTAG | -0.5 z-score |
| TTAGATCTCAGTATCGCTTAGTGCTAG | 0.235 z-score |
| TGAGGTATCCTTATCCTTTAGTGCTAG | 0.222 z-score |
| GAGGGTTTCGACTTTCGGGACGTGCTA | 6.46 z-score |
| GACGGTATCCATCTCCTGACGTGCTAG | 0.9 z-score |
| GACGGCCTGGGTATCGGGACGTGCTAG | -1.21 z-score |
| GCAGATTGGGTTTCAGGGCTGTGCTAG | -0.0312 z-score |
| ATGTGTTTAAGAATGTTTTTGTGCTAG | 0.592 z-score |
| GACGAGCTGGGGTTTCGAGACGTGCTA | 0.912 z-score |
| TTAGGTTTCGACTTTCGGTTGGTGCTA | 12.8 z-score |
| TTAGGTTTCGACTTTCGGTGAGTGCTA | 7.38 z-score |
| TCAAATTTGCTTTAGTCACTGTGCTAG | 0.621 z-score |
| GACGGTCTCCTACTGCTTACGTGCTAG | 0.826 z-score |
| TTAGGTCTCCTCCTCCTTTAGTGCTAG | 0.72 z-score |
| GACGGTTTACTTATCCTGACGTGCTAG | 1.54 z-score |
| TTAGTACTGAGACTGGATTAGTGCTAG | -0.11 z-score |
| TCATCATTATTGTCTCCCACTGTGCTA | 1.45 z-score |

Repeated from above (series 3):
| Substitution | relative binding score |
| --- | --- |
| L93S | 67.9% |
| G108L | -6.31% |
| R90M | 66.9% |
| Q167L | 81.4% |
| M68P | 75% |
| D75I | 94.8% |
| R132I | 87.6% |
| E67A | 83.6% |
| N77S | 89.8% |
| F15C | 56.4% |
| D144G | 31% |
| L112C | 43.8% |
| Q10K | 93% |
| V100G | 8.03% |
